Results from different studies.
Lines come from different studies, so protocols differ.
B1: ERRFI1 330-399 Y358A (human, UniProt Q9UJM3); N-terminal FITC; sequence looked up; chain SRTPSPKSLPSYLNGVMPPTQSFAPDPKAVSSKALQRQNSEGSASKVPCILPIIENGKKVSSTHYYLLPE
B2: AGRN 1329-2068 N1993R (Homo sapiens, UniProt O00468); sequence looked up; chain PPKPCDSQPCFHGGTCQDWALGGGFTCSCPAGRGGAVCEKVLGAPVPAFEGRSFLAFPTLRAYHTLRLALEFRALEPQGLLLYNGNARGKDFLALALLDGRVQLRFDTGSGPAVLTSAVPVEPGQWHRLELSRHWRRGTLSVDGETPVLGESPSGTDGLNLDTDLFVGGVPEDQAAVALERTFVGAGLRGCIRLLDVNNQRLELGIGPGAATRGSGVGECGDHPCLPNPCHGGAPCQNLEAGRFHCQCPPGRVGPTCADEKSPCQPNPCHGAAPCRVLPEGGAQCECPLGREGTFCQTASGQDGSGPFLADFNGFSHLELRGLHTFARDLGEKMALEVVFLARGPSGLLLYNGQKTDGKGDFVSLALRDRRLEFRYDLGKGAAVIRSREPVTLGAWTRVSLERNGRKGALRVGDGPRVLGESPKSRKVPHTVLNLKEPLYVGGAPDFSKLARAAAVSSGFDGAIQLVSLGGRQLLTPEHVLRQVDVTSFAGHPCTRASGHPCLNGASCVPREAAYVCLCPGGFSGPHCEKGLVEKSAGDVDTLAFDGRTFVEYLNAVTESELANEIPVEKALQSNHFELSLRTEATQGLVLWSGKATERADYVALAIVDGHLQLSYNLGSQPVVLRSTVPVNTNRWLRVVAHREQREGSLQVGREAPVTGSSPLGATQLDTDGALWLGGLPELPVGPALPKAYGTGFVGCLRDVVVGRHPLHLLEDAVTKPELRPCPTP
B3: POL30 1-258 (Saccharomyces cerevisiae, UniProt P15873); chain MLEAKFEEASLFKRIIDGFKDCVQLVNFQCKEDGIIAQAVDDSRVLLVSLEIGVEAFQEYRCDHPVTLGMDLTSLSKILRCGNNTDTLTLIADNTPDSIILLFEDTKKDRIAEYSLKLMDIDADFLKIEELQYDSTLSLPSSEFSKIVRDLSQLSDSINIMITKETIKFVADGDIGSGSVIIKPFVDMEHPETSIKLEMDQPVDLTFGAKYLLDIIKGSSLSDRVGIRLSSEAPALFQFDLKSGFLQFFLAPKFNDEE
B4: ATG9 1-100 (Saccharomyces cerevisiae, UniProt Q12142); sequence looked up; chain MERDEYQLPNSHGKNTFLSRIFGLQSDEVNPSLNSQEMSNFPLPDIERGSSLLHSTNDSREDVDENDLRVPESDQGTSTEEEDEVDEEQVQAYAPQISDG
B5: AZI2 1-75 (Homo sapiens, UniProt Q9H6S1); chain MDALVEDDICILNHEKAHKRDTVTPVSIYSGDESVASHFALVTAYEDIKKRLKDSEKENSLLKKRIRFLEEKLIA
B6: UPF3B 2-483 (Homo sapiens, UniProt Q9BZI7); sequence looked up; chain KEEKEHRPKEKRVTLLTPAGATGSGGGTSGDSSKGEDKQDRNKEKKEALSKVVIRRLPPTLTKEQLQEHLQPMPEHDYFEFFSNDTSLYPHMYARAYINFKNQEDIILFRDRFDGYVFLDNKGQEYPAIVEFAPFQKAAKKKTKKRDTKVGTIDDDPEYRKFLESYATDNEKMTSTPETLLEEIEAKNRELIAKKTTPLLSFLKNKQRMREEKREERRRREIERKRQREEERRKWKEEEKRKRKDIEKLKKIDRIPERDKLKDEPKIKVHRFLLQAVNQKNLLKKPEKGDEKELDKREKAKKLDKENLSDERASGQSCTLPKRSDSELKDEKPKRPEDESGRDYREREREYERDQERILRERERLKRQEEERRRQKERYEKEKTFKRKEEEMKKEKDTLRDKGKKAESTESIGSSEKTEKKEEVVKRDRIRNKDRPAMQLYQPGARSRNRLCPPDDSTKSGDSAAERKQESGISHRKEGGEE
B7: TTC7B (Homo sapiens, UniProt Q86TV6); chain MATKKAGSRLETEIERCRSECQWERIPELVKQLSAKLIANDDMAELLLGESKLEQYLKEHPLRQGASPRGPKPQLTEVRKHLTAALDRGNLKSEFLQESNLIMAKLNYVEGDYKEALNIYARVGLDDLPLTAVPPYRLRVIAEAYATKGLCLEKLPISSSTSNLHVDREQDVITCYEKAGDIALLYLQEIERVILSNIQNRSPKPGPAPHDQELGFFLETGLQRAHVLYFKNGNLTRGVGRFRELLRAVETRTTQNLRMTIARQLAEILLRGMCEQSYWNPLEDPPCQSPLDDPLRKGANTKTYTLTRRARVYSGENIFCPQENTEEALLLLLISESMANRDAVLSRIPEHKSDRLISLQSASVVYDLLTIALGRRGQYEMLSECLERAMKFAFEEFHLWYQFALSLMAAGKSARAVKVLKECIRLKPDDATIPLLAAKLCMGSLHWLEEAEKFAKTVVDVGEKTSEFKAKGYLALGLTYSLQATDASLRGMQEVLQRKALLAFQRAHSLSPTDHQAAFYLALQLAISRQIPEALGYVRQALQLQGDDANSLHLLALLLSAQKHYHDALNIIDMALSEYPENFILLFSKVKLQSLCRGPDEALLTCKHMLQIWKSCYNLTNPSDSGRGSSLLDRTIADRRQLNTITLPDFSDPETGSVHATSVAASRVEQALSEVASSLQSSAPKQGPLHPWMTLAQIWLHAAEVYIGIGKPAEATACTQEAANLFPMSHNVLYMRGQIAELRGSMDEARRWYEEALAISPTHVKSMQRLALILHQLGRYSLAEKILRDAVQVNSTAHEVWNGLGEVLQAQGNDAAATECFLTALELEASSPAVPFTIIPRVL
B8: ND4L 1-89 (Yarrowia lipolytica, UniProt Q9B6D4); sequence looked up; chain MFIGTIILVLSFLGFVFNRRNIILAFICLETMLLGINLILLRNSVLFDDISGSLFAIVIIILAGVESAIGLSLLVSYYRLRGVINSYGI
Chain of UniProt P40339 (whole entry, looked up): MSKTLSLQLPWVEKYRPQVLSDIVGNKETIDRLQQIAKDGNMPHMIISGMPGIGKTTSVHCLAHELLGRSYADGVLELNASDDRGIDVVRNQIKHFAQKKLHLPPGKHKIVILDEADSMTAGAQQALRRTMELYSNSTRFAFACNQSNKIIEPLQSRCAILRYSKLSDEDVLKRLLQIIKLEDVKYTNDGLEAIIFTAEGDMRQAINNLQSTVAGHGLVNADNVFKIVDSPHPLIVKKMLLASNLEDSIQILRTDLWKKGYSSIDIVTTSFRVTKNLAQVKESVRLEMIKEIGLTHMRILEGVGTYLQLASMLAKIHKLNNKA
Chain of UniProt P42356 (whole entry, looked up): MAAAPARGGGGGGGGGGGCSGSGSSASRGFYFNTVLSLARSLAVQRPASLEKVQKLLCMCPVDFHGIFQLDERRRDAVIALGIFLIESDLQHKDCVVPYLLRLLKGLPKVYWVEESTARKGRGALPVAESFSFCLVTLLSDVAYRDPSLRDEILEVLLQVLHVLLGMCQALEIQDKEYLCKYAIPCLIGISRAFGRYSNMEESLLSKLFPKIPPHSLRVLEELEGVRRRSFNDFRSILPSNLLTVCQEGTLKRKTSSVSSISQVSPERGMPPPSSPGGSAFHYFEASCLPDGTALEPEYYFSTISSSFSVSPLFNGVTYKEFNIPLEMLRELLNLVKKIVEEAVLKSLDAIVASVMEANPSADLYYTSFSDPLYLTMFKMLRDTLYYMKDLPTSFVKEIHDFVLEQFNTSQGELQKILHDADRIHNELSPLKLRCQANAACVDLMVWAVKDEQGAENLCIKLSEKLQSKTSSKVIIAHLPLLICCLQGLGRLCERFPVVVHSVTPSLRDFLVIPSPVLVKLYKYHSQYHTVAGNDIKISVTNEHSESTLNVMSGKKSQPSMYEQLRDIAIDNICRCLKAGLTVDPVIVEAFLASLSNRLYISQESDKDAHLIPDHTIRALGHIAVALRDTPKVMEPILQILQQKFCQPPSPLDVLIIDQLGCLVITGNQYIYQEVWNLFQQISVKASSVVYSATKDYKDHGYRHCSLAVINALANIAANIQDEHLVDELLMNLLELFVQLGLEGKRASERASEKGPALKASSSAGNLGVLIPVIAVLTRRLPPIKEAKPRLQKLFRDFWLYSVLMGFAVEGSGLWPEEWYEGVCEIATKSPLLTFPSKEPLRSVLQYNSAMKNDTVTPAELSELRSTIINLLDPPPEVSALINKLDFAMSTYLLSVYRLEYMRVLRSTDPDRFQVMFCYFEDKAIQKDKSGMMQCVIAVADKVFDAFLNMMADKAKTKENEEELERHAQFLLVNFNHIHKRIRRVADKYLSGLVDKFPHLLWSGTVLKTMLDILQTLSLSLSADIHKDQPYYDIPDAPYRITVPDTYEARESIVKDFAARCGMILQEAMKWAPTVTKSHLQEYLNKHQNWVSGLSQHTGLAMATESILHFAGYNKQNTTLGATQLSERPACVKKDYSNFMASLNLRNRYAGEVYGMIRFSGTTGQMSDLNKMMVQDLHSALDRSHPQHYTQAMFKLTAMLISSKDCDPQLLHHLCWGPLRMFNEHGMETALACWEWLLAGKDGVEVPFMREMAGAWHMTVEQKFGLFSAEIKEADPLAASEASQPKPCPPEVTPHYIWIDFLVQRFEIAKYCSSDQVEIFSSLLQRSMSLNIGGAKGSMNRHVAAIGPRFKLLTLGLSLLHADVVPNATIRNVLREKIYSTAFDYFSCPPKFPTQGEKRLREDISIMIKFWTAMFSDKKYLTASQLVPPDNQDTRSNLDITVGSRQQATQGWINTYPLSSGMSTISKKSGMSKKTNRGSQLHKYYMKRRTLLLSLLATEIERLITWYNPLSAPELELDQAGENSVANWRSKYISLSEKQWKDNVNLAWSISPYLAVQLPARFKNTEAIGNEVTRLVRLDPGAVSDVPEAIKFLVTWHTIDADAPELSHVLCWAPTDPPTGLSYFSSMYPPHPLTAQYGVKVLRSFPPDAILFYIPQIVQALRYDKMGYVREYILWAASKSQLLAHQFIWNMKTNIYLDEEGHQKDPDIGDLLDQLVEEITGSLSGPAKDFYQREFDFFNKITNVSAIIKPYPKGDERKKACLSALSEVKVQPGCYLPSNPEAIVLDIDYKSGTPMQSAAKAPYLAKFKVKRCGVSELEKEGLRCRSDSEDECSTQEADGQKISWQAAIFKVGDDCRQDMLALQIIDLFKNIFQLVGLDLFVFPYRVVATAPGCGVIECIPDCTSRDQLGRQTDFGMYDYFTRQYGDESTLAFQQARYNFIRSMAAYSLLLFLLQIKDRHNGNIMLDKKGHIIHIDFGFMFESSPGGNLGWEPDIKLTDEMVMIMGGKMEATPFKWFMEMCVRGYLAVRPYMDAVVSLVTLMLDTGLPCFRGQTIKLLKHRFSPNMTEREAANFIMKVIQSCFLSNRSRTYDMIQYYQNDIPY
Chain of UniProt Q9B6C8 (whole entry, looked up): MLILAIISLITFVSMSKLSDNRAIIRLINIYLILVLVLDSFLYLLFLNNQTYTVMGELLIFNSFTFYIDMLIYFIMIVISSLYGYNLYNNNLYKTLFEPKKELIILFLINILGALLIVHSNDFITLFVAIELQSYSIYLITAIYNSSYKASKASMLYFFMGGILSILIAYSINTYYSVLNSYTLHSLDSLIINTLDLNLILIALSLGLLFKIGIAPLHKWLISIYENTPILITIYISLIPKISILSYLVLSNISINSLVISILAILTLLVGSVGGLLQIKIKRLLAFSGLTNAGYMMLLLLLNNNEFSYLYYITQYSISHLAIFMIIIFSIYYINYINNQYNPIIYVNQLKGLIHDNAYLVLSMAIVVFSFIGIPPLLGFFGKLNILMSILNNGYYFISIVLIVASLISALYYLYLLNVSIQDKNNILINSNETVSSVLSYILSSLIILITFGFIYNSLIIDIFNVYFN
Chain of UniProt Q9HAU5 (whole entry, looked up): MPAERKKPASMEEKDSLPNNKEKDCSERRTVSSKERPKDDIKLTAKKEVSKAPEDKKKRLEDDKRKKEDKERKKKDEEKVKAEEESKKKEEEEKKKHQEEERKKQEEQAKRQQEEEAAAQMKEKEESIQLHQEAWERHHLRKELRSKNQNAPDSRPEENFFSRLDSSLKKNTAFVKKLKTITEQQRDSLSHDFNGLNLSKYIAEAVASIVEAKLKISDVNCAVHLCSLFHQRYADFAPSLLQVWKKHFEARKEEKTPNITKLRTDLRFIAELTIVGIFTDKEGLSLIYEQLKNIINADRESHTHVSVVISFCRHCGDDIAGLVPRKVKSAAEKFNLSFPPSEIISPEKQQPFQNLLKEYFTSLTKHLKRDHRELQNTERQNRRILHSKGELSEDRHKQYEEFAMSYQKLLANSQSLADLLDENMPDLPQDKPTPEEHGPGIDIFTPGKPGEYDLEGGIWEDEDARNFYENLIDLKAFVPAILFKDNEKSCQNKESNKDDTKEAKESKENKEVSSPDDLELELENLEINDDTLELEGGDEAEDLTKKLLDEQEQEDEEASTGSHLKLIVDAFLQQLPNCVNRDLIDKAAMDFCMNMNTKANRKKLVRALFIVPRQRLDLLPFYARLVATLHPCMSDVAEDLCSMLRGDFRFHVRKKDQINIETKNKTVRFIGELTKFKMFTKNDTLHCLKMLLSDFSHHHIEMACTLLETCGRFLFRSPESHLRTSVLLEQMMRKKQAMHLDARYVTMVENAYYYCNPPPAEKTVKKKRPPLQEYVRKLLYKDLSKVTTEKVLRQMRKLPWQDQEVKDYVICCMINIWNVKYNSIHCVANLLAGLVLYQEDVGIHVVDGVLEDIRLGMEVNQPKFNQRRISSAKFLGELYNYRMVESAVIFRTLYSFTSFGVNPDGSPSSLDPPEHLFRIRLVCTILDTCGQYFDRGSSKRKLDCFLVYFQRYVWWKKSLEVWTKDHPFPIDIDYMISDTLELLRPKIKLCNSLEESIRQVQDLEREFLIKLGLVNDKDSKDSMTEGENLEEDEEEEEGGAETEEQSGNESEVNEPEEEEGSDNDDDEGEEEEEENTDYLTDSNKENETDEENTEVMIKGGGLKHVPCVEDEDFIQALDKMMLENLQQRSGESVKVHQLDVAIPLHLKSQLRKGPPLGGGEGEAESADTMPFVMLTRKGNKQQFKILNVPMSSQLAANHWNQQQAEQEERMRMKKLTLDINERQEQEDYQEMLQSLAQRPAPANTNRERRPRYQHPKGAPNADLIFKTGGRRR
Chain of UniProt Q13137 (whole entry, looked up): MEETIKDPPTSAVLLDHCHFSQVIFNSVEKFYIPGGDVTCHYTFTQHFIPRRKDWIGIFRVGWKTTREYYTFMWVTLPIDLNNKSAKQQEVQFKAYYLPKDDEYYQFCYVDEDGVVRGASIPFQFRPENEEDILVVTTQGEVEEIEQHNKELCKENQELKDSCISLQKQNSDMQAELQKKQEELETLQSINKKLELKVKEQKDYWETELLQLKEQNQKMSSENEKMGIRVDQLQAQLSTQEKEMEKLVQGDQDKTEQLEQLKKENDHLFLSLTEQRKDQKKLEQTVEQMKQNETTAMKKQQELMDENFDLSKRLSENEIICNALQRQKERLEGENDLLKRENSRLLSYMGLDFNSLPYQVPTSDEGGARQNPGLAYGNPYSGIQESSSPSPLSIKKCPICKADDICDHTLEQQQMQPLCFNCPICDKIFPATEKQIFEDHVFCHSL

human EEF1G — log2 fold change (PP6C (human); co-immunoprecipitation, IP-MS; CYB5R4 knockout cells; concentration not given; relative to: CYB5R4 knockout over parental): 0.33
B1 (ERRFI1 330-399 Y358A) — binding (EGFR 696-1022 (Homo sapiens, UniProt P00533); fluorescence polarization; apparent): binds
B2 (AGRN 1329-2068 N1993R) — binding (LRP4 21-1350 (Homo sapiens, UniProt O75096); mass photometry; mutant, together with: CaCl2): binds
human Fas — log2 fold change (PP6C (human); co-immunoprecipitation, IP-MS; CYB5R4 knockout cells; concentration not given; relative to: CYB5R4 knockout over parental): -0.31
B3 (POL30 1-258) — binding (RFC4 (Saccharomyces cerevisiae, UniProt P40339); cryo-EM): binds
B4 (ATG9 1-100) — binding (ATG23 L323R (Saccharomyces cerevisiae, UniProt Q06671); pull-down; 15 minutes, 4 °C): binds
B5 (AZI2 1-75) — binding (CALCOCO2 1-316 (Homo sapiens, UniProt Q13137); SEC): binds
B6 (UPF3B 2-483) — binding (UPF2 (Homo sapiens, UniProt Q9HAU5); pull-down): binds
B7 (TTC7B) — binding (PI4KA (Homo sapiens, UniProt P42356); cryo-EM): binds
B8 (ND4L 1-89) — binding (ND2 1-469 (Yarrowia lipolytica, UniProt Q9B6C8); cryo-EM): binds

Some of these lines once more:
B8 (ND4L 1-89) — binding (ND2 1-469 (Yarrowia lipolytica, UniProt Q9B6C8); cryo-EM): binds
